Measured values collected from several papers.
Each line is one published result; not all experiments were run side by side. ± marks the error that the study gave.

CO[C@H]1C[C@@H]2CC[C@@H](C)[C@@](O)(O2)C(=O)C(=O)N2CCCC[C@H]2C(=O)O[C@H]([C@H](C)C[C@@H]2CC[C@@H](OC(=O)NCCOCCOCCOCCOCCOCCOCCOCCOCCC(=O)N3CCc4cc(Cn5nc(-c6ccc7oc(N)nc7c6)c6c(N)ncnc65)ccc4C3)[C@H](OC)C2)C[C@@H](O)[C@H](C)/C=C(\C)[C@@H](O)[C@@H](OC)C(=O)[C@H](C)C[C@H](C)/C=C/C=C/C=C/1C — half-life (human patients, plasma; intravenous, 10 mg, cycle 1 day 15, 2 h infusion): 4.1 h
Cc1nc2ccc(F)cc2n1-c1nc(N)c(F)c(Nc2ccc(C(F)(F)F)cc2)n1 — half-life (human patients, plasma; oral, 200 mg twice weekly, cycles 1 and 2 pooled): 9.1 h
COc1cc([C@H]2Oc3ccc([C@H]4Oc5cc(O)cc(O)c5C(=O)[C@@H]4O)cc3O[C@@H]2CO)ccc1O — half-life (OATP1B1/1B3 humanized mice, plasma; oral gavage, 500 mg/kg silymarin): 0.34 h
C[C@@H](Cn1ccc(-c2ccc(C#N)c(Cl)c2)n1)NC(=O)c1cc([C@@H](C)O)[nH]n1 — half-life (human, fasted, plasma; oral, 300 mg darolutamide tablet, geometric mean): 13.6 h
CC(C)(Sc1ccncc1-c1ccc(C#N)c2ccccc12)C(=O)O — half-life (human, plasma; oral, 2.5 mg once daily, together with: febuxostat 20 mg): 14.8 h
C[C@H](Oc1ccc(Br)cc1-c1ccon1)C(=O)O — half-life (LC-MS/MS, non-compartmental; human, plasma; 600 mg once daily, day 10, multiple ascending dose, mean): 5.37 h
COc1ccc([C@@H](O)c2cc(-c3ncnc4cc(N5CCOCC5)ccc34)c(F)cc2Cl)nn1 — half-life (human, plasma; oral, 200 mg once daily, single dose, geometric mean): 6.95 h
CN(C(=O)C(C)(C)c1cc(C(F)(F)F)cc(C(F)(F)F)c1)c1cnc(N2C[C@H]3COCCN3C[C@H]2CO)cc1-c1ccc(F)cc1[14CH3] — half-life (measured: total radioactivity; human, plasma; oral, 120 mg): 46.3 h
CCOc1c([C@H](C)n2nc(C)c3c(N)ncnc32)cc(Cl)c(F)c1[C@@H]1CNC(=O)C1 — half-life (human, fasted, plasma; oral, dose not given, steady state, geometric mean): ~10 h
Cc1ccc([C@@H]2O[C@H](CO)[C@@H](O)[C@H](O)[C@H]2O)cc1Cc1ccc(-c2ccc(F)cc2)s1 — half-life (human, maintenance hemodialysis patients; oral, 300 mg once daily, steady state, median): 10.4 h
Cc1cc(/C=C/C#N)cc(C)c1Nc1ccnc(Nc2ccc(C#N)cc2)n1 — half-life (human, normal renal function, plasma; oral, fixed-dose combination): 33.5 h
CCN1CCN(Cc2ccc(Nc3ncc(F)c(-c4cc(F)c5nc(C)n(C(C)C)c5c4)n3)nc2)CC1 — half-life (healthy human, fasted, plasma; oral, 200 mg, capsule): 21.6 h
CC#CC(=O)N1CC[C@@H](n2cc(-c3ccc(Oc4c(F)cccc4F)cc3)c3c(N)n[nH]c(=O)c32)C1 — half-life (human patients; oral, 100 to 300 mg, monotherapy): 2.24 h
Cn1cncc1[C@@](N)(c1ccc(Cl)cc1)c1ccc2c(c1)c(-c1cccc(Cl)c1)cc(=O)n2C — half-life (human, plasma; oral, 300 mg/m^2, range, first dose): 1.5 to 12 h
C#C[C@]1(COP(=O)(O)O)O[C@@H](n2cnc3c(N)nc(F)nc32)C[C@@H]1O — half-life (measured: islatravir triphosphate; human, PBMC; oral, 100 mg single dose): 123 h
CC(=O)O[C@H]1C(=O)[C@@]2(C)[C@H]([C@H](OC(=O)c3ccccc3)[C@]3(O)C[C@H](OC(=O)[C@H](O)[C@@H](NC(=O)c4ccccc4)c4ccccc4)C(C)=C1C3(C)C)[C@]1(OC(C)=O)CO[C@@H]1C[C@@H]2O — half-life (human, plasma; intravenous infusion, 60 mg/m^2, cycle 1 day 15, with oral co-drug daily): 9.54 h
Cc1cccc(F)c1N1CCC(N2Cc3cn(CC(C)(F)F)nc3N(Cc3ccccc3C(F)(F)F)C2=O)CC1 — half-life (human healthy subjects, plasma; oral, 100 mg, single dose, fed, geometric mean): 40.8 h
NC[C@@]1(CC(=O)O)[C@@H]2CC[C@H]3C[C@@H]2[C@@H]1C3 — half-life (human, moderate renal impairment, plasma; oral, 20 mg single dose, geometric mean): 5.98 h
CC1(COc2ccc3c(c2)ncn3-c2ccc3cccc(N4CCC(N)CC4)c3n2)COC1 — half-life (human patients, recurrent/progressive HGG or DIPG, serum; oral, 100 mg/m^2, day 28, median): 14.9 h
COc1cc([C@@H]2[C@H]3CO[C@@]4(O)C(=O)[C@@H]2C=C([C@H]2Oc5cc(O)cc(O)c5C(=O)[C@@H]2O)[C@@H]34)ccc1O — half-life (OATP1B1/1B3 humanized mice, plasma; oral gavage, 500 mg/kg silymarin): 4.4 h
COC(=O)N[C@@H](C)CNc1nccc(-c2cn(C(C)C)nc2-c2cc(Cl)cc(NS(C)(=O)=O)c2F)n1 — half-life (human patients, plasma; oral, 450 mg twice daily, day 14, steady state, geometric mean, together with: binimetinib 45 mg once daily): 4.37 h
CCN1CCN(Cc2ccc(Nc3ncc(F)c(-c4cc(F)c5nc6n(c5c4)[C@H](C)CCC6)n3)nc2)CC1 — half-life (human, plasma; 100 mg single dose, mean): 42.4 h
CC(C)=CCC/C(C)=C/CC/C(C)=C/CC[C@@](C)(O)CCC1=C(C)C(=O)C(C)=C(C)C1=O — half-life (healthy human, plasma; oral, 400 mg, single dose, alone): 10.2 h
N#CCNC(=O)c1ccc(-c2ccnc(Nc3ccc(N4CCOCC4)cc3)n2)cc1 — half-life (healthy human volunteers, plasma; oral, day 12, without rifampin): 3.53 h
O=C(O)CCC(=O)O.[2H]C([2H])([2H])Oc1cc(C)c2[nH]ccc2c1CN1CC[C@@H](C2CC2)C[C@H]1c1ccc(C(=O)O)cc1 — half-life (human, fasted, plasma; oral, 200 mg, single ascending dose): 31 h
C=CC(=O)N(C)CCOc1c(N)ncnc1-c1cc(F)cc(NC(=O)c2ccc(C3CC3)cc2F)c1C — half-life (human, fasted, whole blood; oral, 60 mg single dose, food effect study, median): 2.72 h
CN[C@@H](C)C(=O)N[C@H]1CN(S(=O)(=O)c2cccc(S(=O)(=O)N3CC[C@H]4CC[C@@H](C(=O)NC(c5ccccc5)c5ccccc5)N4C(=O)[C@@H](NC(=O)[C@H](C)NC)C3)c2)CC[C@H]2CC[C@@H](C(=O)NC(c3ccccc3)c3ccccc3)N2C1=O — half-life (LC-MS/MS, noncompartmental; human, plasma; 20 mg, cycle 1 day 1): 1.11 h
COc1ncc(-c2nc3c(n2C(C)C)[C@H](c2ccc(Cl)cc2)N(c2cc(Cl)cn(C)c2=O)C3=O)c(OC)n1 — half-life (human, plasma; oral, 200 mg, C2D1, high-dose, median): 6.8 h
CC(C)n1c(Nc2cccnc2)nc2cnc(Nc3ccc(N4CCN(C)CC4)cc3)nc21 — half-life (human, male, plasma; oral, 100 mg, day 1, single dose alone): 39.9 h
CN(C)C(=O)c1cc2cnc(Nc3ccc(N4CCNCC4)cn3)nc2n1C1CCCC1 — half-life (LC-MS/MS; human, expansion cohort, plasma; oral, 800 mg, day 14, together with: gemcitabine 1000 mg/m^2): 24.6 h
NC(CO)(CO)CCc1ccc(Sc2cccc(OCc3ccccc3)c2)cc1Cl — half-life (human male, whole blood; oral, 3 mg, given alone): 115 h
N#Cc1cc(NC(=O)[C@H]2c3ccccc3C(=O)N(CC(F)(F)F)[C@@H]2c2cccnc2)ccc1F — half-life (human, plasma; oral, 300 mg, median): 20.1 h
CC(C)NC(=O)COc1cccc(-c2nc(Nc3ccc4[nH]ncc4c3)c3ccccc3n2)c1 — half-life (human male, plasma; oral, 200 mg once daily, day 13, fed, geometric mean, together with: rosuvastatin): 9 h
Cc1noc(C)c1-c1cc(C(O)(c2ccccn2)c2ccccn2)c2nc(C3CC3)[nH]c2c1 — half-life (human patients, plasma; oral, 3 mg, cycle 1 day 8, monotherapy): 16.8 h
CCCCCCCCCCCCCCCC(=O)N[C@@H](CCC(=O)NCCCC[C@@H]1NC(=O)[C@H]([C@@H](C)CC)NC(=O)[C@@H](NC(=O)[C@@H]2CCCN2C(=O)[C@H](Cc2ccccc2)NC(=O)[C@H](Cc2c[nH]cn2)NC(=O)[C@@H](NC(=O)[C@H](CC(=O)O)NC(=O)CC(C)C)[C@@H](C)O)CSSC[C@@H](C(=O)N[C@@H](CCCCN)C(N)=O)NC(=O)CNC(=O)[C@H](CCCCN)NC(=O)[C@H](CO)NC(=O)[C@H](CCCNC(=N)N)NC(=O)[C@@H]2CCCN2C(=O)[C@H](CCC(=O)O)NC(=O)[C@H](Cc2ccccc2)NC1=O)C(=O)O — half-life (healthy human, plasma; subcutaneous, 20 mg, single dose, aqueous formulation): 33.5 ± 19.3 h
CCNCc1cc(Nc2ccnc3cc(Cl)ccc23)ccc1O — half-life (human, both sexes, plasma; oral, dose not given, non-fixed combination): 200 h
Cc1nc(Nc2ncc(C(=O)Nc3c(C)cccc3Cl)s2)cc(N2CCN(CCO)CC2)n1 — half-life (human patients, plasma; oral, 65 mg/m^2, day 8): 5.2 ± 1.3 h
CCCCCCCOc1ccc(CCC(N)(CO)CO)cc1C(F)(F)F.Cl — half-life (healthy human males, plasma; oral, 0.125 mg, day 21): 415 h
C[C@@H](Oc1ccc(S(C)(=O)=O)cc1C(=O)N1C[C@@H]2C[C@]2(c2cc(C(F)(F)F)on2)C1)C(F)(F)F — half-life (LC-MS/MS; young human subjects, plasma; oral, 75 mg twice daily, steady state, multiple doses): 34.2 h
O=C(COc1ccc(Cl)cc1)NC12CC(c3nnc([C@H]4C[C@@H](OC(F)(F)F)C4)o3)(C1)C2 — half-life (healthy human volunteers fasted, plasma; oral, 400 mg single dose, arithmetic mean): 37.4 h
Cc1ccc(C)c(OCCCC(C)(C)C(=O)O)c1 — half-life (human, plasma; oral, 600 mg, before lopinavir/ritonavir, geometric mean): 4.4 h
OC[C@H]1O[C@@H](c2ccc(Cl)c(Cc3ccc(O[C@H]4CCOC4)cc3)c2)[C@H](O)[C@@H](O)[C@@H]1O — half-life (healthy humans, plasma; oral, 25 mg, alone): 7.12 ± 0.69 h
CO[C@@H]1[C@H](OC(=O)N2CC(CCN3CCOCC3)C2)CC[C@]2(CO2)[C@H]1[C@@]1(C)O[C@@H]1CC=C(C)C — half-life (humans, plasma; subcutaneous, 0.2 mg twice weekly, first dose): 0.48 ± 0.63 h
NCc1cc2c(cc1F)C(=O)N(C1CCC(=O)NC1=O)C2 (centres unmarked) — half-life (human, mixed sex, whole blood): > 3 h
Cc1nc(-c2ccc(OCC(C)C)c(C#N)c2)sc1C(=O)O — half-life (human; oral, 10 mg once daily, together with: verinurad 0 mg): 7.68 h
C#C[C@]1(CO)O[C@@H](n2cnc3c(N)nc(F)nc32)C[C@@H]1O — half-life (human, plasma; oral, 30 mg, single dose, geometric mean): 48.7 h
CC(C)[C@H](N)C(=O)NCCCS(=O)(=O)O — half-life (human, plasma; oral, 256.5 mg once daily days 8-14, day 14, fasted, capsule): 0.894 h

Some of these lines once more:
CC(=O)O[C@H]1C(=O)[C@@]2(C)[C@H]([C@H](OC(=O)c3ccccc3)[C@]3(O)C[C@H](OC(=O)[C@H](O)[C@@H](NC(=O)c4ccccc4)c4ccccc4)C(C)=C1C3(C)C)[C@]1(OC(C)=O)CO[C@@H]1C[C@@H]2O — half-life (human, plasma; intravenous infusion, 60 mg/m^2, cycle 1 day 15, with oral co-drug daily): 9.54 h
CC(C)[C@H](N)C(=O)NCCCS(=O)(=O)O — half-life (human, plasma; oral, 256.5 mg once daily days 8-14, day 14, fasted, capsule): 0.894 h
C[C@@H](Oc1ccc(S(C)(=O)=O)cc1C(=O)N1C[C@@H]2C[C@]2(c2cc(C(F)(F)F)on2)C1)C(F)(F)F — half-life (LC-MS/MS; young human subjects, plasma; oral, 75 mg twice daily, steady state, multiple doses): 34.2 h
